Measured values from different studies.
Every numbered part comes from another study and shows a few of its results, in no order. Values joined by “and” are separate records of one study, mostly repeats; a detail may differ.
Sequence of UniProt P21397 (whole entry, looked up): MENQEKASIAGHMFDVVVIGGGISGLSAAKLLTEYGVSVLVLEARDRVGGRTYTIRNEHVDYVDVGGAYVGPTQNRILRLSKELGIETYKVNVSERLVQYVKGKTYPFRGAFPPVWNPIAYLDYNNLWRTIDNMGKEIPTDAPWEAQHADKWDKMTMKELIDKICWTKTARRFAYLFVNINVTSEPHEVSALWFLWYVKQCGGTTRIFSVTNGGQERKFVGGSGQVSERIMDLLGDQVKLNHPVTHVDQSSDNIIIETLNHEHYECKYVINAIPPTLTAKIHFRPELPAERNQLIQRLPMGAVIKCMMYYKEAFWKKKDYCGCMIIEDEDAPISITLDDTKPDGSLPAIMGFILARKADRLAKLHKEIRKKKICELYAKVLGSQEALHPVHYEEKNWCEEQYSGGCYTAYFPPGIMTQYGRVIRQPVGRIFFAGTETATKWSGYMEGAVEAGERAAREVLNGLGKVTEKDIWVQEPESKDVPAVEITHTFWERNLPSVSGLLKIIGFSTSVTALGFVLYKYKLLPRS
Sequence of UniProt P10721 (whole entry, unmodified, looked up): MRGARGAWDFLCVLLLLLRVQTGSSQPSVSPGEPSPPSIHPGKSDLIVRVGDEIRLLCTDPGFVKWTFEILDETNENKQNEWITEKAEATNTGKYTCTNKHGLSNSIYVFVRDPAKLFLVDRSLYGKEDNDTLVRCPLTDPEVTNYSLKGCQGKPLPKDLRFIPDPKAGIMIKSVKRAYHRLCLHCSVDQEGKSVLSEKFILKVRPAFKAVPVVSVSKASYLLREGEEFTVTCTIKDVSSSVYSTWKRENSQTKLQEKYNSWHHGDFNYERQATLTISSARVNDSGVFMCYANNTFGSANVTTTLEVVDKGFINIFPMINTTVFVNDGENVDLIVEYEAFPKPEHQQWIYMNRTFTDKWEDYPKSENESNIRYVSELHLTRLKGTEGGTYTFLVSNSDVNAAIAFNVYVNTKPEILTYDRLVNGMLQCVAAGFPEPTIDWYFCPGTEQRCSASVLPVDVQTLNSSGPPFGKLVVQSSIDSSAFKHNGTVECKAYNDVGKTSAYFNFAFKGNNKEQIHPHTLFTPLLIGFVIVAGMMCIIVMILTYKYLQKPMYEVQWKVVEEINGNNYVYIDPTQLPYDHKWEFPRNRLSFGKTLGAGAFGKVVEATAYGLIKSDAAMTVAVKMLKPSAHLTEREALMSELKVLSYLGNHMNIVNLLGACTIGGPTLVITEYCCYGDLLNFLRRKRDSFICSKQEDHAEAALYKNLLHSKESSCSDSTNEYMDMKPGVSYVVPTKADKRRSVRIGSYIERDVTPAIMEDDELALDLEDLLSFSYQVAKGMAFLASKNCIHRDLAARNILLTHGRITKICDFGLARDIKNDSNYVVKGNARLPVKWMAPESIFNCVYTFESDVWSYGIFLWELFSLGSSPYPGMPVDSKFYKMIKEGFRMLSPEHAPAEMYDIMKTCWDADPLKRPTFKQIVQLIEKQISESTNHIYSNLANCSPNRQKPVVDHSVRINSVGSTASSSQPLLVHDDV
Sequence of UniProt P22607 (whole entry, looked up): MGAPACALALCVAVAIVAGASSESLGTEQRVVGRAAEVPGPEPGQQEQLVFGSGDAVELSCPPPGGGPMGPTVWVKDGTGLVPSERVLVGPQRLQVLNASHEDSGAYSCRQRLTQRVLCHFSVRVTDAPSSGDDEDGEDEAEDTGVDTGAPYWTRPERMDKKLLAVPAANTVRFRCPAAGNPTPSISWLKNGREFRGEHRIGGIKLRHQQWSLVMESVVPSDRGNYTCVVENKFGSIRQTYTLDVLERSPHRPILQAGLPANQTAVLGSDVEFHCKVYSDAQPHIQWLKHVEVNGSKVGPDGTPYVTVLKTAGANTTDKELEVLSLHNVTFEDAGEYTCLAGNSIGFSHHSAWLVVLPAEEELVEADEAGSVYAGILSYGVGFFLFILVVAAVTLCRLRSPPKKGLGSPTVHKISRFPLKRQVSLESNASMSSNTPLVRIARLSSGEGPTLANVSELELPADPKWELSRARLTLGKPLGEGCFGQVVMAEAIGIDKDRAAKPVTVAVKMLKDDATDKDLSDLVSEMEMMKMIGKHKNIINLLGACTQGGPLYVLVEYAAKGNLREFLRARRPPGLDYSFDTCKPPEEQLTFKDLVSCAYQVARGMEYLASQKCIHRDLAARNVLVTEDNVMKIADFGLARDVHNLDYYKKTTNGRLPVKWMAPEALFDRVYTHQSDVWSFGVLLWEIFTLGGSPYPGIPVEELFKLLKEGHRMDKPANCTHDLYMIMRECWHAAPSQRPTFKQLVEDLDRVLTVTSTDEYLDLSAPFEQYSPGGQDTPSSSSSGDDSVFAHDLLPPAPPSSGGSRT

Block 1
Compound: O=C(Nc1ccccc1)Nc1cccc(Oc2ccc3nccn3n2)c1
Tested at: 1 µM
target | assay | remaining binding
Tyrosine-protein kinase ABL1, phosphorylated (ABL1, Homo sapiens, UniProt P00519) | binding, competition with immobilised ligand | 94%
Phosphatidylinositol 3-kinase C2 domain-containing subunit gamma (PIK3C2G, Homo sapiens, UniProt O75747) | binding | 100%
Calcium/calmodulin-dependent protein kinase type II subunit beta (CAMK2B, Homo sapiens, UniProt Q13554) | binding | 100%
Dual specificity testis-specific protein kinase 1 (TESK1, Homo sapiens, UniProt Q15569) | binding, competition with immobilised ligand | 100%
Mitogen-activated protein kinase kinase kinase kinase 3 (MAP4K3, Homo sapiens, UniProt Q8IVH8) | binding, competition with immobilised ligand | 91%
Tyrosine-protein kinase ABL1, non-phosphorylated (ABL1, Homo sapiens, UniProt P00519) | binding, competition with immobilised ligand | 11%
Fibroblast growth factor receptor 3 (FGFR3, Homo sapiens, UniProt P22607) | cell-free binding | 100%
Mitogen-activated protein kinase kinase kinase 1 (MAP3K1, Homo sapiens, UniProt Q13233) | binding | 100%
Non-receptor tyrosine-protein kinase TYK2, JH2 (TYK2, Homo sapiens, UniProt P29597) | binding, competition with immobilised ligand | 99%
Hepatocyte growth factor receptor (MET, Homo sapiens, UniProt P08581, Y1235D) | binding | 100%
Serine/threonine-protein kinase 25 (STK25, Homo sapiens, UniProt O00506) | binding, competition with immobilised ligand | 100%
Ephrin type-B receptor 3 (EPHB3, Homo sapiens, UniProt P54753) | binding, competition with immobilised ligand | 100%
Ribosomal protein S6 kinase alpha-4, N-terminal kinase domain (RPS6KA4, Homo sapiens, UniProt O75676) | binding, competition with immobilised ligand | 57%
Peripheral plasma membrane protein CASK (CASK, Homo sapiens, UniProt O14936) | binding | 84%
Cyclin-dependent kinase 11A (CDK11A, Homo sapiens, UniProt Q9UQ88) | binding | 95%
Mitogen-activated protein kinase kinase kinase 10 (MAP3K10, Homo sapiens, UniProt Q02779) | binding | 91%
Citron Rho-interacting kinase (CIT, Homo sapiens, UniProt O14578) | binding, competition with immobilised ligand | 0%
Epidermal growth factor receptor (EGFR, Homo sapiens, UniProt P00533, del746-750) | binding | 52%
Tyrosine-protein kinase JAK3, JH1 (JAK3, Homo sapiens, UniProt P52333) | cell-free assay, competition with immobilised ligand | 100%

Block 2
Structure (SMILES): CS(=O)(=O)c1ccc(OC/C(=C/F)CN)cc1.Cl
Amine oxidase [copper-containing] 3: Amine oxidase [copper-containing] 3 (Rattus norvegicus, UniProt O08590)
Sequence of UniProt O08590 (whole entry, looked up): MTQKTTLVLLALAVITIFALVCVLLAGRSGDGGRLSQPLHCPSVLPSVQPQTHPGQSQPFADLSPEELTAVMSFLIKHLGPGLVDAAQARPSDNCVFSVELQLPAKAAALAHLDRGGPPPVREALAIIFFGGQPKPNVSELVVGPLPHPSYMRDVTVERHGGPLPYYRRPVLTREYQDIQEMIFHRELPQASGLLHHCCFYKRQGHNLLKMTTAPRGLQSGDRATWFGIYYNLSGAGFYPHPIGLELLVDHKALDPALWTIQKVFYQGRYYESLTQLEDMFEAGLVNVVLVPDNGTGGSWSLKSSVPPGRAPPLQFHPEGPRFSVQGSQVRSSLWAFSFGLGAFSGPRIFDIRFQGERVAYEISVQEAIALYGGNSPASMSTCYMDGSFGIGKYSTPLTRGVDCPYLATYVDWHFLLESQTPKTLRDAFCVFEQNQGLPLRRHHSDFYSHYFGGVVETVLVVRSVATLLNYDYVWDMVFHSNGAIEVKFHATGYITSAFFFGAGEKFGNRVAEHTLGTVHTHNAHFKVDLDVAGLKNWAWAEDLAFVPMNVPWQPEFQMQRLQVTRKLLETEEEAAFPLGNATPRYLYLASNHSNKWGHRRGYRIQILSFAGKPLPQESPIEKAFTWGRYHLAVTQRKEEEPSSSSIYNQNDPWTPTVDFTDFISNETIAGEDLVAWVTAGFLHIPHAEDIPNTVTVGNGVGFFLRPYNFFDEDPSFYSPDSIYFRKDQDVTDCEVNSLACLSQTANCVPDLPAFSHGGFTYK
MAOB: Amine oxidase [flavin-containing] B (MAOB, Homo sapiens, UniProt P27338)
Sequence of UniProt P27338 (whole entry, looked up): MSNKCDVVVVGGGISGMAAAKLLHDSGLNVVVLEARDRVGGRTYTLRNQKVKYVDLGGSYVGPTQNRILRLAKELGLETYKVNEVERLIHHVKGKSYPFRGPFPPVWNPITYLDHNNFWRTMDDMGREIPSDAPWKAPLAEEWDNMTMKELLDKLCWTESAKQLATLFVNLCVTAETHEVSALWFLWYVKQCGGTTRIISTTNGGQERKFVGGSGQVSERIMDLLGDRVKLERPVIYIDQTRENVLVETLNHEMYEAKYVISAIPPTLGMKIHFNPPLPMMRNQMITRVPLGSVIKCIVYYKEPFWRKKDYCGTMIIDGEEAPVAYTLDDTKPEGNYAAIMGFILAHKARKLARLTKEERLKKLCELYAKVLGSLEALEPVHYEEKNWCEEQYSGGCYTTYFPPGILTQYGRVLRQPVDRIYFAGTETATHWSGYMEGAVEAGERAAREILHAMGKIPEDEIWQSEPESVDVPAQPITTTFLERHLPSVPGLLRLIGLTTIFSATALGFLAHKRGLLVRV
target | assay | test system | setting | inhibition
Amine oxidase [copper-containing] 3 |  | rat adipose tissue | 0.0002 µM | -4.89%
MAOB | enzyme activity, inhibitor |  | 41.2 nM | -1.63% and 0.29% and 7.73%
MAOB | enzyme activity, inhibitor |  | 1.111 µM | 0.195% and -0.111%
MAOB | enzyme activity, inhibitor |  | 13.7 nM | -0.779% and 5.84% and 8.47%
Amine oxidase [copper-containing] 3 |  | rat adipose tissue | 0.0014 µM | 29.5%
Amine oxidase [flavin-containing] A (MAOA, Homo sapiens, UniProt P21397) | enzyme activity, inhibitor |  | 13.7 nM | 0.276% and 7.8% and 4.69% and 0.464% and -1.19%
MAOB | enzyme activity, inhibitor |  | 200 pM | 4.24% and -0.299%
Amine oxidase [copper-containing] 3 |  | rat adipose tissue | 1 µM | 100%

Block 3
SMILES: CC[C@@]1(c2cccc(-c3c(F)cncc3OC)c2)C2=C(Nc3n[nH]cc31)[C@H](F)C(C)(C)CC2=O (single isomer, unassigned)
Tested at: 1 µM
target | assay | scale | remaining binding
Macrophage colony-stimulating factor 1 receptor (CSF1R, Homo sapiens, UniProt P07333) | binding, competition with immobilised ligand |  | 96%
eIF-2-alpha kinase GCN2 (EIF2AK4, Homo sapiens, UniProt Q9P2K8, S808G) | kinase binding, KINOMEscan | baseline: DMSO control | 100%
cAMP-dependent protein kinase catalytic subunit PRKX (PRKX, Homo sapiens, UniProt P51817) | binding, competition with immobilised ligand |  | 96%
Mitogen-activated protein kinase kinase kinase 11 (MAP3K11, Homo sapiens, UniProt Q16584) | binding, competition with immobilised ligand |  | 92%
Mitogen-activated protein kinase 6 (MAPK6, Homo sapiens, UniProt Q16659) | kinase binding, KINOMEscan | baseline: DMSO control | 100%
Mast/stem cell growth factor receptor Kit (KIT, Homo sapiens, UniProt P10721, D816V) | kinase binding, KINOMEscan | baseline: DMSO control | 100%
Myotonin-protein kinase (DMPK, Homo sapiens, UniProt Q09013) | binding, competition with immobilised ligand |  | 77%
Proto-oncogene tyrosine-protein kinase Src (SRC, Homo sapiens, UniProt P12931) | kinase binding, KINOMEscan | baseline: DMSO control | 94%
Serine/threonine-protein kinase WNK4 (WNK4, Homo sapiens, UniProt Q96J92) | binding, competition with immobilised ligand |  | 89%
Receptor-type tyrosine-protein kinase FLT3 (FLT3, Homo sapiens, UniProt P36888, D835V) | kinase binding, KINOMEscan | baseline: DMSO control | 69%
G protein-coupled receptor kinase 4 (GRK4, Homo sapiens, UniProt P32298) | kinase binding, KINOMEscan | baseline: DMSO control | 83%
Serine/threonine-protein kinase pim-2 (PIM2, Homo sapiens, UniProt Q9P1W9) | binding, competition with immobilised ligand |  | 98%
Receptor-type tyrosine-protein kinase FLT3 (FLT3, Homo sapiens, UniProt P36888, R834Q) | binding, competition with immobilised ligand |  | 89%
Cyclin-dependent kinase 14 (CDK14, Homo sapiens, UniProt O94921) | kinase binding, KINOMEscan | baseline: DMSO control | 100%
MAP kinase-activated protein kinase 5 (MAPKAPK5, Homo sapiens, UniProt Q8IW41) | binding, competition with immobilised ligand |  | 89%
Mast/stem cell growth factor receptor Kit (KIT, Homo sapiens, UniProt P10721) | binding, competition with immobilised ligand |  | 100%
Tyrosine-protein kinase Fyn (FYN, Homo sapiens, UniProt P06241) | binding, competition with immobilised ligand |  | 100%
Dual specificity mitogen-activated protein kinase kinase 7 (MAP2K7, Homo sapiens, UniProt O14733) | kinase binding, KINOMEscan | baseline: DMSO control | 77%

Block 4
SMILES: C[C@@H]1CN(c2ccc(-c3cc(C(=O)NCCOCCOCCOCCOCCNC(=O)Cn4cc(-c5[nH]cc(C(=O)N[C@@H](CC(N)=O)c6ccc(F)c(Cl)c6)c5-c5ccc(Cl)cc5F)cn4)ccc3F)cc2NC(=O)c2c[nH]c(=O)cc2C(F)(F)F)C[C@H](C)N1C
Effect on: thermal unfolding
Method: differential scanning fluorimetry
Tested at: 5.5 µM
Direction: higher = more unfolded
WDR5: WD repeat-containing protein 5 (WDR5, Homo sapiens, UniProt P61964)
DCAF1: DDB1- and CUL4-associated factor 1 (DCAF1, Homo sapiens, UniProt Q9Y4B6)
Sequence of UniProt Q9Y4B6 (whole entry, looked up): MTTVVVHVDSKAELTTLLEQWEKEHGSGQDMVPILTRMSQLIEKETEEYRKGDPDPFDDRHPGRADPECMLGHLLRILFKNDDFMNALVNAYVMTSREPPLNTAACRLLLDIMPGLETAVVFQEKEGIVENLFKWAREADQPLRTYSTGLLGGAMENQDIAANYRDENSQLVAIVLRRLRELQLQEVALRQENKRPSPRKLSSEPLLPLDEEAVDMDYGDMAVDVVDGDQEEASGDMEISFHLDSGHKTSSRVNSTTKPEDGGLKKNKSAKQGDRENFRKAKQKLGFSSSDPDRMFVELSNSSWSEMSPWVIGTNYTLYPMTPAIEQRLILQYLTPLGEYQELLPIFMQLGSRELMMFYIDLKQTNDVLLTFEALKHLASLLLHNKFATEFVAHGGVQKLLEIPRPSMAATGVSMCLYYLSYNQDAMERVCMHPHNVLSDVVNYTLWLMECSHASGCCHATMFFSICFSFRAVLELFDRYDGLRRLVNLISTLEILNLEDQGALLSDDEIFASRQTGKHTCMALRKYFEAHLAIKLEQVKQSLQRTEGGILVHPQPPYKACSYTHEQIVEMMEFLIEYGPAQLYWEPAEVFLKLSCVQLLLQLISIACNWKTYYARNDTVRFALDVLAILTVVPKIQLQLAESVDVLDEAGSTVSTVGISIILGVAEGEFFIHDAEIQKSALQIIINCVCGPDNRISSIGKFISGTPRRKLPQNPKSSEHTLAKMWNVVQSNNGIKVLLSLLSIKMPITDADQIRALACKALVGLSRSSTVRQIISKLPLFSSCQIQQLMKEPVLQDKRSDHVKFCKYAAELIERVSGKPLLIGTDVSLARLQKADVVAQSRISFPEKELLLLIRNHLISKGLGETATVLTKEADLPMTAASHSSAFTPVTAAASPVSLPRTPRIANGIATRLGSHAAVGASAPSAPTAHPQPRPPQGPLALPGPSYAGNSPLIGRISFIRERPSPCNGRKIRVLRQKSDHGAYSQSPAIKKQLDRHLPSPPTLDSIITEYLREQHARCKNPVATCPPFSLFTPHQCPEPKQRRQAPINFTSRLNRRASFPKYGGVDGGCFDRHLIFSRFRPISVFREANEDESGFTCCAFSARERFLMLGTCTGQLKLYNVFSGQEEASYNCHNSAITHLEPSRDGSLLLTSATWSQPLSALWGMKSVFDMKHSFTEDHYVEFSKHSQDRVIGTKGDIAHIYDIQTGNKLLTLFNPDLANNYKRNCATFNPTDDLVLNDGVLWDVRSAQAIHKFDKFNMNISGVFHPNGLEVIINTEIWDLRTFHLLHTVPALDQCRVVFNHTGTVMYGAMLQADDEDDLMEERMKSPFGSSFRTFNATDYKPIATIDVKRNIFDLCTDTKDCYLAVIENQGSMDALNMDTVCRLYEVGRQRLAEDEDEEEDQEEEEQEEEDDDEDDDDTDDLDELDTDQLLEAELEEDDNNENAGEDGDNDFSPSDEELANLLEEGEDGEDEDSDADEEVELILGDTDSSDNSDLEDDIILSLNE
target | setting | SYPRO Orange fluorescence [a.u.]
WDR5 | 49 °C | 14500
WDR5 | 53.81 °C | 14200
DCAF1 | 28.8 °C | 8030
DCAF1 | 78.61 °C | 45400
DCAF1 | 52.81 °C | 16400
WDR5 | 76.21 °C | 13300
WDR5 | 46.2 °C | 14300
DCAF1 | 40.4 °C | 10500
WDR5 | 58.81 °C | 11100
DCAF1 | 87.01 °C | 37800
DCAF1 | 66.01 °C | 56600

Some of these lines once more (block 1):
target | assay | remaining binding
Phosphatidylinositol 3-kinase C2 domain-containing subunit gamma (PIK3C2G, Homo sapiens, UniProt O75747) | binding | 100%
Calcium/calmodulin-dependent protein kinase type II subunit beta (CAMK2B, Homo sapiens, UniProt Q13554) | binding | 100%
Dual specificity testis-specific protein kinase 1 (TESK1, Homo sapiens, UniProt Q15569) | binding, competition with immobilised ligand | 100%
Mitogen-activated protein kinase kinase kinase kinase 3 (MAP4K3, Homo sapiens, UniProt Q8IVH8) | binding, competition with immobilised ligand | 91%
